Experimental data pooled from the literature.
Each line is one published result; not all experiments were run side by side. “And” joins repeats or separate records; there may be more than shown. ± marks the error that the study gave.

| Compound | assay | test system | conditions | scale | quantity | result |
| --- | --- | --- | --- | --- | --- | --- |
| O=C(Nc1cccc2cccnc12)c1cnccn1 |  | mouse MIA PaCa-2 xenograft | intraperitoneal, 10 mg/kg days 1-9 then 20 mg/kg days 10-44, day 44, five times weekly |  | tumour volume | 259 ± 38 mm³ |
| Cc1nc(N(Cc2ccccc2)c2ccc3c(c2)/C(=C/c2ccccc2)C(=O)N3Cc2ccccc2)c2ccccc2n1 (mixture of isomers) |  | mouse LLC syngeneic tumour | ip, 30 mg/kg, 14 days | reference: vehicle | tumour weight reduction | ~80.3% |
| CC[C@H](C)[C@H](NC(=O)[C@H](CCCCN)NC(=O)[C@@H](NC(=O)[C@H](CCCNC(=N)N)NC(=O)[C@@H](NC(=O)[C@@H](CCCNC(=N)N)NC(=O)[C@@H](CCCNC(=N)N)NC(=O)[C@@H](CCCNC(=N)N)NC(=O)[C@@H](CCCNC(=N)N)NC(=O)[C@@H](CCCNC(=N)N)NC(=O)[C@H](N)CCCNC(=N)N)[C@@H](C)O)[C@@H](C)O)C(=O)N[C@@H](CC(=O)O)C(=O)N[C@@H](Cc1c[nH]c2ccccc12)C(=O)NC(C)(C)C(=O)N[C@@H](CCCCN)C(=O)N[C@H](C(=O)N[C@@H](CC(C)C)C(=O)NC(C)(C)C(=O)N[C@@H](CCCCN)C(=O)NCCCCCC(=O)NCCCC[C@H](NC(=O)CCCCCNC(=O)[C@H](CCCCN)NC(=O)C(C)(C)NC(=O)[C@H](CC(C)C)NC(=O)[C@@H](NC(=O)[C@H](CCCCN)NC(=O)C(C)(C)NC(=O)[C@H](Cc1c[nH]c2ccccc12)NC(=O)[C@H](CC(=O)O)NC(=O)[C@@H](NC(=O)[C@H](CCCCN)NC(=O)[C@@H](NC(=O)[C@H](CCCNC(=N)N)NC(=O)[C@@H](NC(=O)[C@@H](CCCNC(=N)N)NC(=O)[C@@H](CCCNC(=N)N)NC(=O)[C@@H](CCCNC(=N)N)NC(=O)[C@@H](CCCNC(=N)N)NC(=O)[C@@H](CCCNC(=N)N)NC(=O)[C@H](N)CCCNC(=N)N)[C@@H](C)O)[C@@H](C)O)[C@@H](C)CC)[C@@H](C)CC)C(N)=O)[C@@H](C)CC |  | B16-F10, mouse syngeneic melanoma | intravenous, 25 mg/kg, up to 8 days |  | tumour growth | inhibited |
| COc1cc2ncnc(Nc3ccc(F)c(Cl)c3)c2cc1OCCCN1CCOCC1 |  | mouse LLC syngeneic tumour | ip, 50 mg/kg, 14 days | reference: vehicle | tumour weight reduction | ~59.1% |
| COc1cc(N2CCC(N3CCN(C)CC3)CC2)ccc1Nc1ncc(Cl)c(Nc2ccccc2P(C)(C)=O)n1 |  | NCI-H3122 xenograft, female nude mouse | intraperitoneal, 10 mg/kg, every other day |  | tumour volume | 567 mm3 and 494 mm3 and 683 mm3 and 438 mm3 and 387 mm3 |
| Cl.O=C(c1cc(Cc2n[nH]c(=O)c3ccccc23)ccc1F)N1CC(CNC2CC2)C1 |  | athymic nude mouse, sample A ovarian PDX | oral, 25 mg/kg once daily, 63 days |  | tumour growth inhibition | 133% |
| C=CC(=O)Nc1cc(Nc2nccc(Nc3cc(Cl)c(F)cc3C(C)(C)O)n2)c(OC)cc1N1CC[C@@H](N(C)C)C1 |  | NCI-H2073 EGFR SVD knock-in, BALB/c nude mouse, NCI-H2073 xenograft | 50 mg/kg twice daily, 21 days |  | tumour growth inhibition | 117% |
| C=CCn1c(=O)c2cnc(Nc3ccc(N4CCN(C)CC4)cc3)nc2n1-c1ccc2c(n1)[C@@](O)(CC)CC2 |  | NOD/SCID mouse, A-427 xenograft | oral, 80 mg/kg, 5 d on 2 d off ×4, day 29 | reference: vehicle | tumour volume difference | -94.9 ± 6.6 mm3 |
| CC1(C)C(/C=C/C=C/C=C/C=C2\N(CCCCS(=O)(=O)O)c3ccc4ccccc4c3C2(C)C)=[N+](CCCCS(=O)(=O)[O-])c2ccc3ccccc3c21 |  | mouse, MCF10 DCIS.com intraductal xenograft | intravenous, 0.5 mg/kg, 672 h, image-guided surgery |  | tumour recurrence rate | 100% |
| CC1(C)CN(CCCCC(=O)N[C@@H](CCCCNC(=O)CCCCCCC(=O)NCCCC[C@H](NC(=O)N[C@@H](CCC(=O)O)C(=O)O)C(=O)O)C(=O)O)CC[N]2CC(C)(C)[S][Tc]2(=[O])[S]1 (stereo partly shown) [technetium-99m labelled] | SPECT/PET imaging | mouse, subcutaneous LNCaP tumour, tumour | dose not given, 4 h post-injection |  | tumour uptake | decreased |
| COc1c(Cl)cccc1Nc1c(-c2ccncc2OC[C@@H]2COCCO2)[nH]c2c1C(=O)NCC2 |  | mouse, NSCLC PDX sample A | oral, 10 mg/kg once daily, day 27, unit not given | reference: vehicle | tumour weight T/C | 0.22 |
| COc1ccc(F)cc1C(=O)NCc1ccc(-c2nn([C@@H](C)C(F)(F)F)c(N)c2C(N)=O)cc1 |  | Rec1 mantle cell lymphoma xenograft, mouse | oral, 50 mg/kg twice daily |  | tumour regression | -11% |
| CC1(C)CN(CCCCC(=O)N[C@H](Cc2ccccc2)C(=O)N[C@H](Cc2ccccc2)C(=O)N[C@@H](CCCCNC(=O)CCCCCCC(=O)NCCCC[C@H](NC(=O)N[C@@H](CCC(=O)O)C(=O)O)C(=O)O)C(=O)O)CC[N]2CC(C)(C)[S][Tc]2(=[O])[S]1 (stereo partly shown) [technetium-99m labelled] | SPECT/PET imaging | mouse, subcutaneous LNCaP tumour, tumour | dose not given, 4 h post-injection |  | tumour uptake | decreased |
| CN[C@@H](C)C(=O)N[C@H]1CN(C(=O)CC(C)C)CC[C@H]2CC[C@@H](C(=O)NC(c3ccccc3)c3ccccc3)N2C1=O | tumour growth inhibition model | mouse, MDA-MB-231 xenograft |  |  | tumour growth rate constant | 0.0068 h⁻¹ |
| C[C@]12CC[C@@H]3c4ccc(O)cc4C[C@@H](CCCCCCCCC[S+]([O-])CCCC(F)(F)C(F)(F)F)[C@H]3[C@@H]1CC[C@@H]2O (stereo partly shown) |  | female nude mouse LCC2 xenograft | 2.0 mg/kg, day 9, tamoxifen-resistant |  | tumour volume | 61.9 mm3 and 111 mm3 and 80.9 mm3 and 46.1 mm3 and 75.3 mm3 and 78.5 mm3 and 46.5 mm3 |
| COCc1cc(C(=O)Nc2cc([C@H]3CC[C@@H](OC(=O)NC(C)C)C3)[nH]n2)n(C)n1 |  | OVCAR-3 xenograft, NSG mouse | oral twice daily, middle dose of escalation |  | tumour growth inhibition | 61% |
